Measured values from different studies.
Each numbered part is a random draw from the data of one study; scales do not carry over between parts. Positions count from the first letter of the parent shown.

Block 1 — technique: RNA Bind-n-Seq; molecule type: RNA; matrix: in vitro; concentration: 365 nM; relative to: no-protein control; direction: higher = stronger binding
Target: RNA binding protein fox-1 homolog 2, RRM domain, GST-SBP tag (RBFOX2, Homo sapiens, UniProt O43251-10, residues 100-194)
Notes: natural RNA segment, single round, ends assumed
All sequences stand within: GGGAGUUCUACAGUCCGACGAUC … UGGAAUUCUCGGGUGCCAA
Construct (chain): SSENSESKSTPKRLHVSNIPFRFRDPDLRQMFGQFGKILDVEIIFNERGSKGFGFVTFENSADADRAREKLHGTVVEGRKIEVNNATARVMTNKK
`GGGGGAGGGGAGCCGCUUCCCCACUGUUGCUCUUUUUUAAACAAAUUGAGUUCCUUUUUUUAAGAUAGAAAUUCUUUUCAUGGUCCUCUGAAAGAAGCAAUAGUAACAAU`: “RBNS enrichment (R)” 0.558.
Under “RBNS enrichment (R)”, `CCAGUGCCCUCGGCAGAUGGGUGGCAGAAAGCAGGAGGAGGAAGAGGGAGCUGACCGAUGCCGGGUGUCUUACUCCGCUGAGAUCAGAACCUCCAACAUGCCGAGCAGAC` is recorded as 0.508.
`GAACCCUGGCUGAUAUUGAAGUCAUCAUUGUUGGAUGGUUUAUUCUGUUUUGUUGUUAAUGCUCAGACAGUAUUGUCUGAGAAAUUACACCUGAGUGCAUUUAAGUAUUU`: “RBNS enrichment (R)” 0.462.
`GCCGCGCACGCUUCUGCAUCCUGGAUGUGUGCACCGUGCGCUGAGUGGGCUGGGGCCUUGAGGUGACUCUGUGUCUCCCCCCAAAGCCACAGGGCAGGGAAGGGGGUGGC`: “RBNS enrichment (R)” 0.438.
`UGGAAGCCAAAUGUACUCAUGAAAACAGCCACUCCUAUUCUGAGUCUUGGUUUCUUCACCUAGAAAGUGAGGGUUUGGACUAGAUGAGUGGCUUUCAGGGUGUUCUGUGA`: “RBNS enrichment (R)” 0.239.
`GAGGUGUAGACUCAGCCUCACUCUGUACAAGAGCCAGGUGAGAAUUUCAAGGAUUAUCGACUUCAUAUUGCACAUUAAAGUUACAAAUUAAAGUGGCUUGGUCAAGAAUG` — result for “RBNS enrichment (R)”: 1.07.
Under “RBNS enrichment (R)”, `CUUAACCUUGCUAUGUCUCUCCUUUGAAUAAUGGGGCUUAAAAGAAUAAUGAACAUGGAAUUUGAAUUACUUUUACAAAGCAAUAUGAACUUGUAGAGCUUGUCUUGUGC` is recorded as 0.424.
`CAGAGGAGAGAGACAUUCAGACAGAGGAAAGUCUCCCUGCCCCUCAUUCCUUCCAAGAUGAGAAAAACUUGCCGCCACCCCCCGACACUGAUGCCAGGGAGGUGGGAGGA` — result for “RBNS enrichment (R)”: 0.491.
Under “RBNS enrichment (R)”, `AUGGCUUGAGGUGCCUGGCCCAUGCUGCCGGCUAAAUGCCAUCCAGUGUGCCCAGCAGUUUCAGACCUGACUCUGGAGGGAAUUUGGAGACAGUGUAGACAGCAGCUCUG` is recorded as 0.268.
For `UGAGUGAAGUGGCUGCAACUUGGCAGCCCCAAAACCUGCCACACCCCUGCACCCCUGGAAGCCCAGCACCGGGGCCAGCAGGCUGUGUUCCGUGCUUGCCAACCUAGACC`, “RBNS enrichment (R)” read 0.318.
Under “RBNS enrichment (R)”, `AACACCCAUUUGGGGUUACCAUGUCCAUCCCCCAAGGGGGGCCCUGCCCCUCGAGUCGAUGGUGUCCCGCAUCUACUCAUGUGAACUGGCCUUGGCGAGGGCUGGUCUGU` is recorded as 0.427.
For `UGUGUGACCCCUACCAGAACAGAGACUUUCCUCCUCUUGAAGUUCUCUGAGGGGCGCCAUCUUGACCUUGUGGUUCUCUCUGCAUCUUGACCUCUGUCUUGACAGUGCCC`, “RBNS enrichment (R)” read 2.2.

Block 2 — target: CCNA2, cyclin fold, Cln2 fusion (human); technique: yeast growth competition, sequencing; matrix: yeast; notes: strong parent motif; relative to: not given; direction: higher = stronger binding
Starting sequence: WEE1 docking peptide (human); HKTFRKLRLFDTP
Under “normalised enrichment score”, `HKTFRKLRLFITP [D11I]` is recorded as 0.989.
For `HKTFRKLRLFVTP [D11V]`, “normalised enrichment score” read 1.13.
Under “normalised enrichment score”, `HKTFRKLRLFKTP [D11K]` is recorded as 1.62.
Under “normalised enrichment score”, `HCTFRKLRLFDTP [K2C]` is recorded as 1.26.
`HKTFQKLRLFDTP [R5Q]`: “normalised enrichment score” 1.65.
Under “normalised enrichment score”, `HKTFRKLRCFDTP [L9C]` is recorded as 1.02.
Under “normalised enrichment score”, `HKTFRKLRLFDAP [T12A]` is recorded as 1.39.
For `HKTTRKLRLFDTP [F4T]`, “normalised enrichment score” read 1.67.
`AKTFRKLRLFDTP [H1A]` — result for “normalised enrichment score”: 0.902.
`HKTFRSLRLFDTP [K6S]` — result for “normalised enrichment score”: 1.37.
`HKTFRKLRLFDTK [P13K]` — result for “normalised enrichment score”: 1.67.
Under “normalised enrichment score”, `HTTFRKLRLFDTP [K2T]` is recorded as 1.82.
For `HKTFRKLRLFDTE [P13E]`, “normalised enrichment score” read 0.893.
Under “normalised enrichment score”, `HKTFRKIRLFDTP [L7I]` is recorded as 2.34.
`HKTFRKLRIFDTP [L9I]` — result for “normalised enrichment score”: 0.931.
`HKTFRKLRLFYTP [D11Y]`: “normalised enrichment score” 0.637.

Block 3 — technique: protein-binding microarray; molecule type: double-stranded DNA, one strand shown; matrix: in vitro; concentration: 2540 nM top; notes: 60-bp whole probe; with: salmon DNA 0.4 mg/ml; relative to: random background probes; direction: higher = stronger binding; all sequences stand within: GCCTAGCAC … GTCTTGATTCGCTTGACGCTGCTG
Target: Interferon regulatory factor 3, full length, phosphomimetic (IRF3, Homo sapiens, UniProt Q14653, residues 1-427, S386D/S396D/S398D/S402D/T404D/S405D)
Target sequence (chain): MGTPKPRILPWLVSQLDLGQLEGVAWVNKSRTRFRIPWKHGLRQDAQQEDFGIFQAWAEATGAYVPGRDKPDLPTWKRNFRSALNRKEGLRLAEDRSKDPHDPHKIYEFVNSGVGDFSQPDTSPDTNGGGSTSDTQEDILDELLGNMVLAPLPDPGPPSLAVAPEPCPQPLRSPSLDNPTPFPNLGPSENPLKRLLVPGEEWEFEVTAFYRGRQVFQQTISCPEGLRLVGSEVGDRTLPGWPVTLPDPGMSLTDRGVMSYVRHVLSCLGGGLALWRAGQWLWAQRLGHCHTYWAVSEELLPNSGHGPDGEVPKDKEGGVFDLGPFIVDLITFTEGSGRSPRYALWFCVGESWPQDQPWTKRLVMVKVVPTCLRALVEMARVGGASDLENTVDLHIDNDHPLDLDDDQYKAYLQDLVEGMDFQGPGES
Under “fitted relative affinity”, `TTAGCTATCAGACTGGATTAGTGCTAG` is recorded as -0.13 z-score.
`TAAGGTATAAACTTGGGAAAGTGCTAG` — result for “fitted relative affinity”: -0.363 z-score.
For `GACCGTTTCGACTATCGGGACGTGCTA`, “fitted relative affinity” read 3.33 z-score.
Under “fitted relative affinity”, `GACTGACTGGGACTGGGGACGTGCTAG` is recorded as -0.699 z-score.
For `TTAGGTATCGACTATCGGATAGTGCTA`, “fitted relative affinity” read 0.591 z-score.
`TCAATTATTGTTTCCTTACTGTGCTAG` — result for “fitted relative affinity”: 5.15 z-score.
`TTAGGTTTTGGGACTGGGTTAGTGCTA`: “fitted relative affinity” 0.371 z-score.
`TCATGTTGCTGTTTGAGACTGTGCTAG` — result for “fitted relative affinity”: 2.4 z-score.
`TTAGAACTGAGAATGGATTAGTGCTAG` — result for “fitted relative affinity”: -0.398 z-score.
Under “fitted relative affinity”, `GACGGTTTCGTTCTCCTGACGTGCTAG` is recorded as 8 z-score.
`TTAGATATCGGGTTTCTATTAGTGCTA` — result for “fitted relative affinity”: 0.807 z-score.
For `TTAGGTCTCCTTATACTTTAGTGCTAG`, “fitted relative affinity” read 2.21 z-score.

Further values, each from its own experiment
The fold induction of `PhoQ, residues 284 288 289 292 302 303 GASLAW` is reported as 0.369 (PhoP, residues 12 14 15 18 19 SGWQI (Escherichia coli, UniProt P23836); Sort-seq, refers to: YFP reporter; E. coli; PhoQ-PhoP variant library, with: 10 µM Mg2+; relative to: high Mg2+ state, higher = stronger signaling).
